Experimental data of several laboratories.
Protocols differ between the studies behind these lines. “And” joins repeats or separate records; there may be more than shown. Numbers after ± are the reported error. In brackets after ≈: the same amount, converted by molar mass.

Compound	test	test system	conditions	how to read	quantity	result
CCC(C(=O)Nc1ccc(C(N)=O)c(F)c1)n1cc(OC)c(-c2cc(Cl)ccc2-n2cc(C(F)(F)F)nn2)cc1=O (centres unmarked)	–	healthy male humans	50 mg, added: omeprazole	–	adverse events	28.6%
CN(C)C(=O)c1ccnc(N2Cc3cn(Cc4ccc(F)cc4F)nc3C2)n1	–	MDCK-MDR1	–	–	Papp	33.9 ×10⁻⁶ cm/s
COc1ccnc(C(=O)N[C@H]2COC(=O)[C@H](Cc3ccccc3)[C@@H](OC(=O)C(C)C)[C@H](C)OC2=O)c1O	soil adsorption	soil	pH 6.9, organic carbon 0.8 %	–	Freundlich coefficient KF	220 mL/g
O=S(=O)(NCc1ccncc1)c1ccc(C2CCCCC2)cc1	–	wild-type littermate mouse	0.3 mg/kg	baseline: vehicle	open field speed change	3 ± 1 cm/s
CCCCN1C(=O)c2cccc3c(NCCCCCCN4CCOCC4)ccc(c23)C1=O	–	DMSO	–	–	fluorescence lifetime	10.5 ns
CC(C(=O)O)n1nc(Cn2cc3cc(OCC[18F])c(Cl)cc3n2)c2ccccc2c1=O (racemic)	–	rat, lung	1 h	–	tracer uptake	0.2 %ID/g
CN1Cc2c(NCc3ccc(CN4CCN(c5ccc(C#N)c(F)c5)CC4)cc3)cccc2C(=O)N1C1CCC(=O)NC1=O (centres unmarked)	–	mouse xenograft, liver	dose not given	–	organ weight	642 mg
C=C(NC(=O)c1csc(-c2nc3c(cc2O)-c2nc(cs2)C(=O)NC(C(C)O)C(=O)NC(=C(C)OC)c2nc(cs2)C(=O)NC2c4nc(cs4)C(=O)NC(COC(=O)c4c5c6c(cccc6n4O)COC(=O)C(OC4CC(C)(O)C(N(C)C)C(C)O4)C2OC5)c2nc-3cs2)n1)C(N)=O (centres unmarked)	–	cynomolgus monkey, both sexes, plasma	intravenous infusion, 1.5 mg/kg twice daily, 0 to 30 h	–	AUC(0-inf)	26600 ng·h/mL
CCCCN1C(=O)c2cccc3c(NCCCCCN4CCOCC4)ccc(c23)C1=O	–	methanol	–	–	emission maximum	534 nm
CC(C)(O)c1ncc([S@](N)(=O)=NC(=O)Nc2c3c(cc4c2CCC4)CCC3)s1	item: nervous system disorders	healthy human volunteers	oral, 100 mg single dose, spray-dried dispersion	–	subjects with adverse events	17%
COc1cccc(OC)c1-c1cc(C(=O)NC2(C(=O)O)C3CC4CC(C3)CC2C4)nn1-c1ccc(C(=O)N(C)CCOCCOCCN(C)C(=O)[C@H](CCCCNC(=O)[C@H](CC(C)C)NC(=O)C2OC2C(=O)O)NC(=O)CN2CCN(CC(=O)[O-])CCN(CC(=O)[O-])CCN(CC(=O)[O-])CC2)cc1C(C)C.[177Lu+3] (mixture of isomers)	–	mouse, HT-29 xenograft, kidney	72 h post injection	–	tissue uptake	4.2 %ID/g
CCCCN1C(=O)c2cccc3c(NCCN4CCOCC4)ccc(c23)C1=O	–	DMSO	–	–	fluorescence lifetime	10.2 ns
CC[C@H](C)[C@@H]1NC(=O)[C@H](Cc2ccc(O)cc2)NC(=O)CCCSC[C@@H](C(=O)N(CC(=O)N[C@@H](CC(C)C)C(=O)NCC(N)=O)Cc2ccc(F)cc2)NC(=O)[C@H](CC(N)=O)NC(=O)[C@H](CCC(N)=O)NC1=O	–	human	intranasal, 400 µg repeated doses	–	adverse drug reactions	50%
Cc1cnc2nc1Nc1cccc(c1)COC/C=C/COCc1cc(ccc1OCCN1CCOCC1)N2	–	BALB/c mice, rhEPO-induced polycythemia	75 mg/kg, day 4	–	body weight	18.9 g and 17.4 g and 19.1 g and 19.3 g and 20.4 g and 17.9 g
Cc1[nH]nc2c1N=C(c1ccccc1Cl)c1cnc(N3CCOCC3)cc1N2	metabolic stability	monkey, liver microsomes	1 µM, pH 7.4	–	scaled CLint	78.3 mL/min/kg
CCCCN1C(=O)c2cccc3c(NCCCN4CCOCC4)ccc(c23)C1=O	–	DMF	–	–	emission maximum	532 nm
CC1(C)C(=CC=C2CCCC(C=CC3=[N+](CCC[N+](C)(C)C)c4ccc(S(=O)(=O)O)cc4C3(C)C)=C2SCCOCCOCCC(=O)O)N(CCC[N+](C)(C)C)c2ccc(S(=O)(=O)O)cc21	–	HEPES buffer with FBS	pH 7.4, 50 mM HEPES, 30% FBS	–	emission maximum wavelength	808 nm
CC(=O)N([O-])CCCCCNC(=O)CCC(=O)N([O-])CCCCCNC(=O)CCC(=O)N([O-])CCCCCN.[89Zr+4]	radio-TLC	aqueous buffer	7 d, pH 7.2, 37 °C, 89Zr-labelled complex, added: CaCl2 10-fold excess	–	intact complex	98.4 ± 1.6%
CC(C)C[C@H](NC(=O)[C@H](CCCN)NC(=O)CNC(=O)[C@@H](NC(=O)[C@H](C)NC(=O)[C@@H]1CSCSC[C@H](NC(=O)CC[C@H](N)C(=O)O)C(=O)N[C@@H](CC(N)=O)C(=O)N[C@@H]([C@@H](C)O)C(=O)N[C@@H](C)C(=O)N[C@@H]([C@@H](C)O)C(=O)N1)[C@@H](C)O)C(=O)N[C@@H](C)C(=O)N[C@@H](CCC(=O)O)C(=O)N[C@@](C)(Cc1ccccc1)C(=O)N[C@@H](CC(C)C)C(=O)N[C@H](C(=O)N[C@@H](CCCNC(=N)N)C(=O)N[C@@H](CO)C(=O)N[C@@H](CO)C(=O)N[C@@H](CC(N)=O)C(=O)N(C)[C@@H](CC(N)=O)C(=O)N[C@@H](Cc1ccccc1)C(=O)NCC(=O)N1CCC[C@H]1C(=O)N[C@@H](CCCCNC(=O)CC[C@H](NC(=O)CC[C@H](NC(=O)CCCCCCCCCCCCCCCCCCC(=O)O)C(=O)O)C(=O)O)C(=O)N[C@@H](CC(C)C)C(=O)N1CCC[C@H]1C(=O)N1CCC[C@H]1C(=O)N[C@H](C(=O)N[C@@H](CCC(=O)O)C(=O)N[C@H](C(=O)NCC(=O)N[C@@H](CO)C(=O)N[C@@H](CC(N)=O)C(=O)N[C@H](C(=O)N[C@@H](Cc1ccc(O)cc1)C(N)=O)[C@@H](C)O)C(C)C)[C@@H](C)O)C(C)C	–	human, plasma	subcutaneous, 0.4 mg, single dose, healthy volunteers	–	Tmax	132 h
Cc1cc(NC(=O)c2ccc(Br)cc2)n[nH]1	–	aqueous buffer	pH 7.4	–	thermodynamic solubility	15.9 µg/mL (≈ 56.8 µM)
OC1(C(F)(F)F)CCN(c2nc(Nc3ccnc(C(F)(F)F)c3)nc(-c3cccc(C(F)(F)F)n3)n2)C1 (centres unmarked)	–	monkey	oral, 10 mg/kg	–	AUC(0-inf)	144000 ± 1550 ng·h/mL

Compound	test	test system	conditions	how to read	quantity	result
CCc1cnc(NC(=O)c2cc(S(=O)(=O)N3CCOCC3)ccc2N(C)C2CCCC2)s1	–	mouse, blood	10 mg/kg, 3 doses	–	Basophils absolute count	0 µL⁻¹
CN(C)C(=O)c1cccc(N2Cc3cn(Cc4ccc(F)c(Cl)c4)nc3C2)c1	metabolic stability	rat, liver microsomes	–	–	half-life	0.45 h
CCCCN1C(=O)c2cccc3c(NCCCCCCCCCCN4CCOCC4)ccc(c23)C1=O	–	dioxane	–	–	emission maximum	513 nm
Cc1noc(C)c1Cn1cc(N2C(=O)CN(Cc3cccc(OS(=O)(=O)O)c3)C2=O)cn1	–	Sprague-Dawley rat, male	oral, 10 mg/kg of parent drug, 0.5 h	–	plasma concentration	2600 ng/mL
O=c1c2ccccc2[se]n1CCCCCCn1[se]c2ccccc2c1=O	shake-flask, RP-HPLC	ethanol	24 h, 25 °C	–	solubility	1280 ± 40 µg/mL (≈ 2680 µM)
CSCc1cn(-c2cccc(C(=O)N3CCC(c4nc(-c5ccccc5)n[nH]4)CC3)c2)nn1	–	DPBS	2 µM	–	stability half-life	> 48 h
Cc1c(C(N)=O)cc(Cl)c2c1O[C@@](C)([C@H]1CC[C@H](N(C)C)CC1)O2	–	healthy men, urine	oral, 200 mg [14C]-valemetostat, 0 to 48 h	baseline: dose	excretion	0.64%
C=CC(=O)Nc1cc(Nc2nccc(-c3cn(C)c4ccccc34)n2)c(OC)cc1N(C)CCNC	storage stability	human plasma	30 d, -80 °C, LQC level	–	recovery	95.6%
[123I]c1ccc2nc(-c3ccc(-n4ccnn4)nc3)cn2c1	–	male Wistar rat, brain	intravenous, 4 MBq, 30 min	–	tracer uptake	0.154 %ID/g
COc1cccc(OC)c1-c1cc(C(=O)NC2(C(=O)O)C3CC4CC(C3)CC2C4)nn1-c1ccc(C(=O)NCCNC(=O)[C@H](CCCCNC(=O)[C@H](CC(C)C)NC(=O)C2OC2C(=O)O)NC(=O)CN2CCN(CC(=O)[O-])CCN(CC(=O)[O-])CCN(CC(=O)[O-])CC2)cc1C(C)C.[177Lu+3] (mixture of isomers)	–	mouse HT-29 xenograft	72 h, biodistribution	baseline: tumour over pancreas	tumour-to-pancreas ratio	17.9
CNC(=O)C1CCCN(C(=O)C2CC3CCC2N3C(=O)[C@@H]2C[C@@H](O)CN2C(=O)NCc2cccc(Cl)c2F)C1 (mixture of isomers)	metabolic stability	monkey, liver microsomes	–	–	microsomal CLint	21.6 µL/min/mg
CC[C@H](C)[C@@H]1NC(=O)[C@H](Cc2ccccc2)NC(=O)CCSCc2cccc(c2)CSCCNC(=O)[C@H](Cc2c[nH]cn2)NC(=O)[C@H](Cc2ccc(O)cc2)NC(=O)[C@H](CC(=O)O)NC(=O)[C@H](Cc2ccc(F)cc2)NC(=O)[C@H](CC(C)C)NC(=O)[C@H](CCCCN)NC1=O	PAMPA	–	200 µM, 5 h, pH 7.4	–	membrane retention	< 0.21%
COc1cccc(OC)c1-c1cc(C(=O)NC2(C(=O)O)C3CC4CC(C3)CC2C4)nn1-c1ccc(C(=O)N(C)CCOCCN(C)C(=O)[C@H](CCCCNC(=O)[C@H](CC(C)C)NC(=O)C2OC2C(=O)O)NC(=O)CN2CCN(CC(=O)[O-])CCN(CC(=O)[O-])CCN(CC(=O)[O-])CC2)cc1C(C)C.[177Lu+3] (mixture of isomers)	–	mouse, HT-29 xenograft, heart	168 h post injection	–	tissue uptake	0.22 %ID/g
O=C([O-])CN1CCN(CC(=O)[O-])CCN(CC(CCCc2ccccc2[N+](=O)[O-])N(CC(=O)[O-])CC(=O)[O-])CC1.[177Lu+3] (centres unmarked)	–	human serum	14 days, pH 7.0, 37 °C	–	radionuclide release	< 0.5%
O=C(Nc1cnccc1-c1ccc([18F])nc1)c1ccnc(NC(=O)C2CC2)c1	–	FVB/NJ mice, both sexes, brain	intravenous, 30 min, median, P-gp inhibitor pretreatment, added: tariquidar 15 mg/kg iv	–	SUV	0.183
C=C[C@]1(C)C[C@@H](OC(=O)CSc2ccc(NC(=O)c3ccco3)cc2)[C@]2(C)[C@H](C)CC[C@]3(CCC(=O)[C@H]32)[C@@H](C)[C@@H]1O	–	Mycoplasma gallisepticum-infected chickens, plasma	intramuscular, 5 mg/kg, 2 h	–	plasma concentration	336 ng/mL and 133 ng/mL and 279 ng/mL and 138 ng/mL and 141 ng/mL and 454 ng/mL and 271 ng/mL
Cc1cc(-c2ccc(C(=O)[C@@H]3CCCC[C@H]3C(=O)Nc3cnn4c3C(=O)NCC4)cc2)[nH]n1	–	human, faeces	oral, 200 mg, mean of six subjects	baseline: dose	recovery of radioactivity	79.3%
O=C(Nc1cnccc1-c1ccc([18F])cc1)c1ccnc(NC(=O)C2CC2)c1	ex vivo gamma counting	GSK-3β transgenic mice, late-stage, heart	intravenous, 120 min, mean, P-gp inhibitor pretreatment, added: tariquidar 15 mg/kg iv	–	SUV	0.45
CN[C@H](CC(C)C)C(=O)N[C@H]1C(=O)N[C@@H](CC(N)=O)C(=O)N[C@H]2C(=N)N[C@H]3C(=O)N[C@H](C(=O)N[C@H](C(=O)NCCC[N+](C)(C)C)c4cc(O)cc(O)c4-c4cc3ccc4O)[C@H](O)c3ccc(c(Cl)c3)Oc3cc2cc(c3O[C@@H]2O[C@H](CO)[C@@H](O)[C@H](O)[C@H]2O[C@H]2C[C@](C)(NCc3ccc(-c4ccc(Cl)cc4)cc3)[C@H](O)[C@H](C)O2)Oc2ccc(cc2Cl)[C@H]1O	–	mouse	intravenous, 10 mg/kg	–	volume of distribution	0.14 L/kg
Cc1ncsc1-c1ccc(CNC(=O)[C@@H]2C[C@@H](O)CN2C(=O)[C@@H](NC(=O)COCC(C)(COCCOCCOCCNC(=O)C[C@@H]2N=C(c3ccc(Cl)cc3)c3c(sc(C)c3C)-n3c(C)nnc32)COCCOCCOCCNC(=O)C[C@@H]2N=C(c3ccc(Cl)cc3)c3c(sc(C)c3C)-n3c(C)nnc32)C(C)(C)C)cc1	LC-MS/MS	male C57BL/6 mice, plasma	intravenous, 5 mg/kg, 15 min	–	plasma concentration	15800 ng/mL and 16500 ng/mL

Excerpt of the above:
Compound	test	test system	conditions	how to read	quantity	result
O=C(Nc1cnccc1-c1ccc([18F])nc1)c1ccnc(NC(=O)C2CC2)c1	–	FVB/NJ mice, both sexes, brain	intravenous, 30 min, median, P-gp inhibitor pretreatment, added: tariquidar 15 mg/kg iv	–	SUV	0.183
CSCc1cn(-c2cccc(C(=O)N3CCC(c4nc(-c5ccccc5)n[nH]4)CC3)c2)nn1	–	DPBS	2 µM	–	stability half-life	> 48 h
O=C([O-])CN1CCN(CC(=O)[O-])CCN(CC(CCCc2ccccc2[N+](=O)[O-])N(CC(=O)[O-])CC(=O)[O-])CC1.[177Lu+3] (centres unmarked)	–	human serum	14 days, pH 7.0, 37 °C	–	radionuclide release	< 0.5%
